{"data": "Assay results collected from several papers", "note": "Every numbered part comes from another study and shows a few of its results, in no order."}
{"data": "Block 1", "target": "Histone acetyltransferase KAT6A, both winged helices, GST fusion (KAT6A, Homo sapiens, UniProt Q92794, residues 1-181)", "method": "protein binding microarray", "molecule type": "double-stranded DNA, one strand shown", "sample": "in vitro", "tested at": "not given", "notes": "8-mer, flanks averaged, mean of 2 arrays, mostly near background", "relative to": "not given", "direction": "higher = stronger binding", "Construct (chain)": "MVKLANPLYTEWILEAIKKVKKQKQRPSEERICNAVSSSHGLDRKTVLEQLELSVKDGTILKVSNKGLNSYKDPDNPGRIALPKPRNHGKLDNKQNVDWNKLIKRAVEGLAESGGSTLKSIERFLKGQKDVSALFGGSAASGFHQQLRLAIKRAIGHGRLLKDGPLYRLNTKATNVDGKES"}
{"Oligonucleotide": "GAATAATC", "E-score": -0.104}
{"Oligonucleotide": "ACTATGGA", "E-score": -0.116}
{"Oligonucleotide": "CTAGGTCA", "E-score": -0.179}
{"Oligonucleotide": "GAGTGAGC", "E-score": -0.244}
{"Oligonucleotide": "GCGCAGCC", "E-score": 0.14}
{"Oligonucleotide": "ATGCGGGG", "E-score": 0.123}
{"Oligonucleotide": "GGGTGACA", "E-score": -0.0571}
{"Oligonucleotide": "AATCGTAC", "E-score": 0.0468}
{"data": "Block 2", "target": "Fragile X messenger ribonucleoprotein 1, C-terminal low-complexity region (Fmr1, Mus musculus, UniProt P35922)", "method": "RNA Bind-n-Seq", "molecule type": "RNA", "sample": "in vitro", "tested at": "200 nM", "notes": "whole 134-nt RNA, ends assumed", "added": "150 mM KCl", "relative to": "input library", "direction": "higher = stronger binding"}
{"Oligonucleotide": "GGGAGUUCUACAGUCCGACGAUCUCCUGUGCUACACAUCGUAUGUACCGAAUCGGGGCCCCCGGGCCCCCGGGGCCCCCGGGGAAAGUAUUAUGUUACGCCGUUCGGAUCUGCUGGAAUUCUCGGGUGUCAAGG", "log2 enrichment": -0.834}
{"Oligonucleotide": "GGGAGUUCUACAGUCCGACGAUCAAGUCCUGUGCUACACAUCGUAUGUACCGAAUCGGGUUUGGGAGGGUUUUUUUGGGAAAGUAUUAUGUUACGCCGUUCGGAUCUGCACUUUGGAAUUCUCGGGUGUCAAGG", "log2 enrichment": 0.716}
{"Oligonucleotide": "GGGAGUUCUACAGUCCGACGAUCUAGGUGUUAUCUUCAGGAAGGCACACUGGACCUGCUAAAUUAACAAAUGGAAAGAAAGCGUAAGUACUUGAAGACGUUUACAACUUCAGAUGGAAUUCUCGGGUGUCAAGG", "log2 enrichment": -1.44}
{"Oligonucleotide": "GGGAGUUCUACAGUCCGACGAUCUAACUUUAGAGGAGGAUCUGAUGGAUAUGGCAGUGGACGUGGAUUUGGGGAUGGCUAUAAUGGGCAUGGAGGAGGACCUGGAGGUGGCAAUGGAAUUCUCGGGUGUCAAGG", "log2 enrichment": 0.154}
{"Oligonucleotide": "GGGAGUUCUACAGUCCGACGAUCAAGUCCUGUGCUACACAUCGUAUGUACCGAAUCGGGUUUGGGGUUUGGGUUUGGGGAAAGUAUUAUGUUACGCCGUUCGGAUCUGCACUUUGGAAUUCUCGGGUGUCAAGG", "log2 enrichment": 0.877}
{"Oligonucleotide": "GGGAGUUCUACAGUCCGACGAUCCCUCAAGUCCUGUGCUACACAUCGUAUGUACCGAAUCGGGGCGGGCGGGCGGGAAAGUAUUAUGUUACGCCGUUCGGAUCUGCACUUCCAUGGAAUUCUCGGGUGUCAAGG", "log2 enrichment": 0.895}
{"Oligonucleotide": "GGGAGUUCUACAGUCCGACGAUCACCAUGCAGGUGGGCAUCUUUGGGAAGUGGGGCAAGGGGGGGAUAGGGAGGGGGGUAACACUUUGGGCACAGGUGGUCCCAGGUCGUUUCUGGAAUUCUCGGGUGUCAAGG", "log2 enrichment": 0.481}
{"Oligonucleotide": "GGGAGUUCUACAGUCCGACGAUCUGCCUGUAUGGAGUGGAAUGAAUGUUGCUGGUGUCUCUCUGAAGACUCUGCACCCAGAUUUAGGGACUGAUAAAGAUAAGGAACAGUGGAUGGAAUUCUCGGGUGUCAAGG", "log2 enrichment": -0.552}
{"data": "Block 3", "target": "Replicase polyprotein 1ab, nsp13 helicase (rep, Severe acute respiratory syndrome coronavirus 2, UniProt P0DTD1)", "mode": "inhibitor", "tested at": "20 µM"}
{"Compound": "Oc1cc(Cl)ccc1Oc1ccc(Cl)cc1Cl", "inhibition [%]": -0.02}
{"Compound": "O=C(c1ccc(Cl)cc1)N(Cc1ccccc1)C1CCCCC1", "inhibition [%]": 0.68}
{"Compound": "CSc1cc2c(cc1C(F)(F)F)N(C(=O)Nc1cccnc1)CC2", "inhibition [%]": -0.91}
{"Compound": "O=C(Nc1ccc(CN2CCOCC2)cc1)c1ccc(-c2cccc(Cl)c2)o1", "inhibition [%]": -3.49}
{"Compound": "O=C1CN(/N=C/c2ccc(-c3ccc([N+](=O)[O-])cc3)o2)C(=O)N1", "inhibition [%]": 9.13}
{"Compound": "Nc1cc(-c2ccncc2)c[nH]c1=O", "inhibition [%]": 62.4}
{"Compound": "CN(C)CC(=O)Nc1ccc2[nH]c(=O)c3ccccc3c2c1", "inhibition [%]": 7.48}
{"Compound": "COc1ccc(/C=C\\c2cc(OC)c(OC)c(OC)c2)cc1O", "inhibition [%]": 5.42}
{"Compound": "CC(C)(C)NCC(O)c1cc(O)cc(O)c1 (stereo not drawn)", "inhibition [%]": 3.92}
{"Compound": "CCCNC(=O)Nc1ccc(Oc2ncnc3cc(OC)c(OC)cc23)cc1Cl", "inhibition [%]": 7.67}
{"Compound": "Cn1cc(-c2ccc(F)c(C(F)(F)F)c2)nc1C1CCN(c2ncnc3[nH]ncc23)CC1", "inhibition [%]": -0.23}
{"Compound": "CC(C)(C)C#Cc1cc(N(C(=O)[C@H]2CC[C@H](C)CC2)[C@H]2CC[C@H](O)CC2)c(C(=O)O)s1", "inhibition [%]": 4.07}
{"Compound": "C[C@@]1(O)[C@H](O)[C@@H](CO)O[C@H]1n1cnc2c(NC3CCCC3)nc(Cl)nc21", "inhibition [%]": -3.65}
{"Compound": "Oc1ccc(OCc2ccccc2)cc1", "inhibition [%]": 2.83}
{"Compound": "CCN(C(C)=O)c1cccc(-c2ccnc3c(C#N)cnn23)c1", "inhibition [%]": -2.21}
{"Compound": "CC(C)=CCC/C(C)=C/CC/C(C)=C/CSc1ccccc1C(N)=O", "inhibition [%]": -0.64}
{"Compound": "CC1(C)OC(=O)NC1=O", "inhibition [%]": 8.69}
{"Compound": "Nc1nc(NC2CC2)c2ncn([C@H]3C=C[C@@H](CO)C3)c2n1", "inhibition [%]": -0.16}
{"Compound": "CC(=O)N(c1onc(C)c1C)S(=O)(=O)c1ccc(N)cc1", "inhibition [%]": 12.1}
{"Compound": "NS(=O)(=O)c1ccc(-n2nc(C(F)(F)F)cc2-c2ccc(Cl)cc2)cc1", "inhibition [%]": -0.39}
{"Compound": "COCCCC/C(=N\\OCCN)c1ccc(C(F)(F)F)cc1", "inhibition [%]": -1.78}
{"Compound": "CC[C@]12C=CCN3CC[C@@]4(c5cc([C@@]6(C(=O)OC)C[C@@H]7C[C@@H](C(C)(F)F)CN(Cc8c6[nH]c6ccccc86)C7)c(OC)cc5N(C)[C@H]4[C@@](O)(C(=O)OC)[C@@H]1OC(C)=O)[C@@H]32", "inhibition [%]": 3.18}
{"Compound": "Cc1ccc(Oc2ccccc2-c2csc(N=C3NCCCN3)n2)c(C)c1", "inhibition [%]": -0.63}
{"Compound": "c1cncc(CN2CCC(n3ncc4c(N5CCOCC5)nc(-c5ccc6[nH]ccc6c5)nc43)CC2)c1", "inhibition [%]": -0.09}
{"Compound": "O=c1ncn2nc(Sc3ccc(F)cc3F)ccc2c1-c1c(Cl)cccc1Cl", "inhibition [%]": -3.7}
{"data": "Block 4", "target": "Replicase polyprotein 1ab, main protease (rep, Severe acute respiratory syndrome coronavirus 2, UniProt P0DTD1)", "observed": "enzyme activity", "mode": "inhibitor", "tested at": "20 µM", "notes": "hit confirmation, no DTT"}
{"Compound": "C[n+]1c2cc(N)ccc2cc2ccc(N)cc21", "inhibition": "82.1%"}
{"Compound": "CNc1nc(Nc2cn(C(C)(C)C#N)nc2C)ncc1C(F)(F)F", "inhibition": "70.9%"}
{"Compound": "CN(C)CCNc1nc2cc(O)ccc2c2c1C(=O)c1ccccc1-2", "inhibition": "97.5%"}
{"Compound": "COc1cccc(C(=O)CCN[C@@H](C)[C@H](O)c2ccccc2)c1", "inhibition": "90.5%"}
{"data": "Block 5", "target": "Sal-like protein 4, full length isoform A (SALL4, Homo sapiens, UniProt Q9UJQ4, residues 1-1053)", "method": "universal PBM", "molecule type": "double-stranded DNA, one strand shown", "sample": "in vitro", "tested at": "600 nM", "notes": "8-mer, flanks averaged, mean of replicates", "direction": "higher = stronger binding", "chain of UniProt Q9UJQ4 (whole entry, looked up)": "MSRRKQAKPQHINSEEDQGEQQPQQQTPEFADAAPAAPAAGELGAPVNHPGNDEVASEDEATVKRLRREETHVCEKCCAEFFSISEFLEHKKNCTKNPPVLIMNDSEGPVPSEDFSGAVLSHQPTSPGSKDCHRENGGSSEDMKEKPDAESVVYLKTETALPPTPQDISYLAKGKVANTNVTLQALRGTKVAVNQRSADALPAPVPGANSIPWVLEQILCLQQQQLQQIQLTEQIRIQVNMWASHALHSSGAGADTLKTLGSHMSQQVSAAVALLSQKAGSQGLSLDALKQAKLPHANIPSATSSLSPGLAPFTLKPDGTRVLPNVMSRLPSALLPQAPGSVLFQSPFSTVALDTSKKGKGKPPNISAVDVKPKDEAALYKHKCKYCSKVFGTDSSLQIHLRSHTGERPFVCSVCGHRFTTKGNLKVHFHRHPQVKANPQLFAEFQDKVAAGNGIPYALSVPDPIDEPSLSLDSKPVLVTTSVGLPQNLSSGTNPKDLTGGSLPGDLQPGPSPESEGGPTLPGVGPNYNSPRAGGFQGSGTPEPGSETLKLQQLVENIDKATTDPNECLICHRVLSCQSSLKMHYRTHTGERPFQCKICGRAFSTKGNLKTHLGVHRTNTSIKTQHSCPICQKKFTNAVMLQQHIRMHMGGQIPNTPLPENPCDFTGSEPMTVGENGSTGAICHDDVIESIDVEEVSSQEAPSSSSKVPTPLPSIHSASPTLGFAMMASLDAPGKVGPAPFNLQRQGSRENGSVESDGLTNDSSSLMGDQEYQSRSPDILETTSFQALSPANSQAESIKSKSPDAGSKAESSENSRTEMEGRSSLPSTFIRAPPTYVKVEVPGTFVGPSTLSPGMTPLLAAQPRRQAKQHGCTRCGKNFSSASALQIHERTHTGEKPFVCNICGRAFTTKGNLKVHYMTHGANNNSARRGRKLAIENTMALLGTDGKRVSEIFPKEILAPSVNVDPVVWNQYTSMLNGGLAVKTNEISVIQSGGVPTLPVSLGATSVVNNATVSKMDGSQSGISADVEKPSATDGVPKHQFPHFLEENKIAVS"}
{"Oligonucleotide": "TTCACGAA", "E-score": -0.0185}
{"Oligonucleotide": "ATCCGTGC", "E-score": 0.0362}
{"Oligonucleotide": "AGCAAGTA", "E-score": 0.113}
{"Oligonucleotide": "AAGAAGGG", "E-score": -0.14}
{"Oligonucleotide": "CGAAGGCC", "E-score": -0.313}
{"Oligonucleotide": "CGTGCTTC", "E-score": -0.205}
{"Oligonucleotide": "ACATCCAC", "E-score": 0.0403}
{"Oligonucleotide": "GCCCTAGC", "E-score": -0.166}
{"data": "Block 6", "cell line": "HEK-293T", "observed": "pseudovirus infection", "method": "FDA-approved drug library screen", "organism": "VSV pseudotyped with SARS-CoV-2 spike", "tested at": "10 µM", "time": "16 h", "relative to": "vehicle-treated"}
{"Compound": "CC(=O)O[C@@]12CO[C@@H]1C[C@H](O)[C@@]1(C)C(=O)[C@H](O)C3=C(C)[C@@H](OC(=O)[C@H](O)[C@@H](NC(=O)OC(C)(C)C)c4ccccc4)C[C@@](O)([C@@H](OC(=O)c4ccccc4)[C@H]21)C3(C)C", "GFP-positive cells": "98.1%"}
{"Compound": "Cc1c(-c2ccccc2)oc2c(C(=O)OCCN3CCCCC3)cccc2c1=O", "GFP-positive cells": "94.3%"}
{"Compound": "CC(=O)OCC1=C(C(=O)O)N2C(=O)[C@@H](NC(=O)Cc3cccs3)[C@H]2SC1", "GFP-positive cells": "86.9%"}
{"Compound": "[H]/N=C(/NCCCCC)N/N=C/c1c[nH]c2ccc(OC)cc12", "GFP-positive cells": "97.8%"}
{"note": "Some of these lines once more (block 1):"}
{"Oligonucleotide": "GAATAATC", "E-score": -0.104}
{"Oligonucleotide": "ACTATGGA", "E-score": -0.116}
{"Oligonucleotide": "CTAGGTCA", "E-score": -0.179}
{"Oligonucleotide": "GAGTGAGC", "E-score": -0.244}
{"Oligonucleotide": "GCGCAGCC", "E-score": 0.14}
{"Oligonucleotide": "ATGCGGGG", "E-score": 0.123}
{"Oligonucleotide": "GGGTGACA", "E-score": -0.0571}
{"Oligonucleotide": "AATCGTAC", "E-score": 0.0468}
